Measured values of several laboratories.
Every numbered part comes from another study and shows a few of its results, in no order. Positions count from the first letter of the parent shown.

Block 1
Target: ABI1, truncated, D143A, DHFR fusion (Arabidopsis thaliana)
Technique: DHFR PCA, deep sequencing
Medium: yeast
Setting: methotrexate growth selection, single substitutions
Added: (+)-ABA 0.39 µM
Relative to: wild-type fitted maximum
Direction: higher = stronger binding
Parent: PYL1, truncated, DHFR fusion (Arabidopsis thaliana); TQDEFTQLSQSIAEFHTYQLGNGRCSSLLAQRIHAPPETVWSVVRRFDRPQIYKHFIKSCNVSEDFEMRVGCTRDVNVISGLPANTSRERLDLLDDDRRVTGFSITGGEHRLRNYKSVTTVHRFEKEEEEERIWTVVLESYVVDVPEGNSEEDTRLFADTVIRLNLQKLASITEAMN
Change | relative binding score [%]
E14V | -0.692
Y115G | 9.55
R69A | 39.2
S9Y | 34.7
L91I | -6.28
D159H | -26.8
R98Y | 0.717
C60W | 4.48

Block 2
Target: Ras GTPase-activating protein-binding protein 1, C-terminal RGG region (G3BP1, Homo sapiens, UniProt Q13283)
Sequence of UniProt Q13283 (whole entry, looked up): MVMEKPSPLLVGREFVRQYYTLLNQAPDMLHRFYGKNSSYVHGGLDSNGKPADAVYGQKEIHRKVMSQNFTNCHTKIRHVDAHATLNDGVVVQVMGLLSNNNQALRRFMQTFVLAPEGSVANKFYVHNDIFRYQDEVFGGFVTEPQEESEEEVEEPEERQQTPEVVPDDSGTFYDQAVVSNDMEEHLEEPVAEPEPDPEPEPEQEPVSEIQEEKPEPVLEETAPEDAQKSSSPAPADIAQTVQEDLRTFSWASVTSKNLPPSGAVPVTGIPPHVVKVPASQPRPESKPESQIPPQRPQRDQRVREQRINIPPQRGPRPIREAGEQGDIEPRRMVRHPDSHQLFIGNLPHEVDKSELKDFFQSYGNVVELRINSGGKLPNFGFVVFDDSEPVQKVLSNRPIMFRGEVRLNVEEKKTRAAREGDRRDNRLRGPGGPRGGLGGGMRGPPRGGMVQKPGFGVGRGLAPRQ
Technique: RNA Bind-n-Seq
Molecule type: RNA
Medium: in vitro
Concentration: 1 µM
Setting: whole 134-nt RNA, ends assumed
Added: 150 mM KCl
Relative to: input library
Direction: higher = stronger binding
Sequence | log2 enrichment
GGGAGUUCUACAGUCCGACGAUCUCUGUUUCCUCUGCCAGUGGCAAUGCAACACCUAACACUCCUGGGGAUGAGUCUCCCUGUGGUAUUAUUAUUCCUCAUGAAAACUCACCAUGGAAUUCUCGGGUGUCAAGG | -0.033
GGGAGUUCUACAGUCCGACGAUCCCUGUGCUACACAUCGUAUGUACCGAAUCAAACCCCCAAACCCCCCCAAACCCCCCCAAAAAAGUAUUAUGUUACGCCGUUCGGAUCUGCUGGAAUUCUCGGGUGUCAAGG | -0.914
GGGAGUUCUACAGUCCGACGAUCUCCUCAAGUCCUGUGCUACACAUCGUAUGUACCGAAUCGGUUGGUUGGUUGGAAAGUAUUAUGUUACGCCGUUCGGAUCUGCACUUCCAGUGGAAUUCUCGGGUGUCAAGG | -0.0836
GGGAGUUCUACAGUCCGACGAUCUCCUCAAGUCCUGUGCUACACAUCGUAUGUACCGAAUCGGGCGGGCGGCGGGAAAGUAUUAUGUUACGCCGUUCGGAUCUGCACUUCCAGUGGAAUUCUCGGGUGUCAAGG | -0.25
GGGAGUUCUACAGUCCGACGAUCCACAGACAACACGCACCCACACAGACACAGAGGGAAGGGGUUGGGAUGGGGACAGGGUGCACAGGAGGGCGGGGUAGGACCCCAGCCCCUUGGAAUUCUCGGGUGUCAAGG | 0.00986
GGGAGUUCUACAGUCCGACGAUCAGUCCUGUGCUACACAUCGUAUGUACCGAAUCGGAAAGGAAAAAAAGGUUUUUUUGGAAAGUAUUAUGUUACGCCGUUCGGAUCUGCACUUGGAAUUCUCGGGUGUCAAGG | -2.2
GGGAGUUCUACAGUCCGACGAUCACCAUGCAGGUGGGCAUCUUUGGGAAGUGGGGCAAGGGGGGGAAAGGGAGGGGGGUAACACUUUGGGAACAGGUGGUCCCAGGUCGUUUCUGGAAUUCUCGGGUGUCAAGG | -0.468
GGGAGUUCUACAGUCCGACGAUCCACAGACAACACGCACCCACACAGACACAGAGGGAAGGGGUUGGGAUGGGGACAGGGUGCACAGCAGGGCGGGGUAGGACACCAGCCCCUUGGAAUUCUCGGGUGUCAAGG | -1.03

Block 3
Target: RNA binding protein fox-1 homolog 2, RRM domain, GST-SBP tag (RBFOX2, Homo sapiens, UniProt O43251-10, residues 100-194)
Technique: RNA Bind-n-Seq
Molecule type: RNA
Medium: in vitro
Concentration: 365 nM
Setting: natural RNA segment, single round, ends assumed
Relative to: no-protein control
Direction: higher = stronger binding
Residues (chain): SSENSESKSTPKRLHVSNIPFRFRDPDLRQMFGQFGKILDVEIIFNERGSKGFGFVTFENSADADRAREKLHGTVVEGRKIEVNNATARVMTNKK
Sequence | RBNS enrichment (R)
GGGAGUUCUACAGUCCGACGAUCUUGGGUCUGUCGUCUCUCUCCGCCUAGCGACAGAUUCCUUCUAUUAAGGGAUUGGCUCGCUGAGUUCUAAGCUCUAAAUGGGUCAACUCCUUUGUUUUCCGCCUAGCGACUGGAAUUCUCGGGUGCCAA | 0.186
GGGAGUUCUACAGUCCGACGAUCCCGCUGACUCCUGCUGUGUCCUGAGGUGCAUUUCCUGUUGUACACACAAGGGCCAGGCUCCAUUCUCCCUCCCUUUCCACCAGUGCCACAGCCUCGUCUGGAAAAAGGACUGGAAUUCUCGGGUGCCAA | 0.386
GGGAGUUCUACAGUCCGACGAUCGACAAUAGCCAGAUGGUUAGUGGGGCAGCCAGGCAGGGAGGACCCAGGGCUGGGAUUCUCCAACCUUAGGCCAUUCCUGCAGCCCUCACCACCUCCAGCCCCUCCAAGCAUGGAAUUCUCGGGUGCCAA | 0.616
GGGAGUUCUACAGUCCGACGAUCCAGAAUGAAGAUGAAUGGCCUGACCAGCUAUCUAGGGUUUGGGGAGAUGCAAAAUUGUAAAAUUCCUUAAUGUUUAAGGGAAAGUUAACUUUAAGAGAUUUUCAGAAAAGUGGAAUUCUCGGGUGCCAA | 1.04
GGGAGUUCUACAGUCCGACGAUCACCCUUUGUUAGAAGUGUUGACGCUCCAAGCACGCGUGUGAAGCACCAUGUAUCUUGGCCGGUUUCAUAUUUGUAAGAAGCACCGGUAGGAACCUAAGAGCAUCGGUUGGUGGAAUUCUCGGGUGCCAA | 1.82
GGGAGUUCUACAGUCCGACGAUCGAGAAAUGUCUUUUCAUGAAUCCUAAGGACAUGCUGUGUCAGCUAAACCUACAAUUGAUUGCUUCUAGAGUUUAAAAAGGGAAAGUUGUGCUUGUAUUUGCAAGUUGAAUUGGAAUUCUCGGGUGCCAA | 1.67
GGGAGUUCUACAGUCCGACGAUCGAUGUGCCCUGUUGCCCCCCACCCCAUCCCGCACAGAACCAUCCCUGCAUUCCACAGGGGACUCGGGCAAGGGUGCCGAAGAUAGACAAGAGGCACACAGAGACAGACCAUGGAAUUCUCGGGUGCCAA | 0.43
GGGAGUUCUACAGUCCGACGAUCUCCUCCUGUCCCCUAACCUCCACCUACCACCAUCCUCCCUCUCAGUUCUCUCCCAUCCUUGCCCCUGGUUCAGGAGCCAUUCUACCUGCCUCAGUGGCCAGGCGCAAGGCUGGAAUUCUCGGGUGCCAA | 0.92

Single results of other studies
Sequence | target | read-out | molecule type | concentration | endpoint | value
TTRAVNMEV | HLA class I histocompatibility antigen, A alpha chain, allele A*80:01 (Homo sapiens, UniProt P04439) | peptide-MHC binding | peptide | concentration not given | binding | inactive

Some of these lines once more (block 2):
Sequence | log2 enrichment
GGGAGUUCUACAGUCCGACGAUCACCAUGCAGGUGGGCAUCUUUGGGAAGUGGGGCAAGGGGGGGAAAGGGAGGGGGGUAACACUUUGGGAACAGGUGGUCCCAGGUCGUUUCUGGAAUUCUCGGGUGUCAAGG | -0.468
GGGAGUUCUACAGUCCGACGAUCCACAGACAACACGCACCCACACAGACACAGAGGGAAGGGGUUGGGAUGGGGACAGGGUGCACAGCAGGGCGGGGUAGGACACCAGCCCCUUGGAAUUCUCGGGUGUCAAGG | -1.03
